Measured values gathered from unrelated publications.
A part holds a random share of what one study measured. Substitutions count along the parent as printed.
Chain of UniProt P37173 (whole entry, looked up): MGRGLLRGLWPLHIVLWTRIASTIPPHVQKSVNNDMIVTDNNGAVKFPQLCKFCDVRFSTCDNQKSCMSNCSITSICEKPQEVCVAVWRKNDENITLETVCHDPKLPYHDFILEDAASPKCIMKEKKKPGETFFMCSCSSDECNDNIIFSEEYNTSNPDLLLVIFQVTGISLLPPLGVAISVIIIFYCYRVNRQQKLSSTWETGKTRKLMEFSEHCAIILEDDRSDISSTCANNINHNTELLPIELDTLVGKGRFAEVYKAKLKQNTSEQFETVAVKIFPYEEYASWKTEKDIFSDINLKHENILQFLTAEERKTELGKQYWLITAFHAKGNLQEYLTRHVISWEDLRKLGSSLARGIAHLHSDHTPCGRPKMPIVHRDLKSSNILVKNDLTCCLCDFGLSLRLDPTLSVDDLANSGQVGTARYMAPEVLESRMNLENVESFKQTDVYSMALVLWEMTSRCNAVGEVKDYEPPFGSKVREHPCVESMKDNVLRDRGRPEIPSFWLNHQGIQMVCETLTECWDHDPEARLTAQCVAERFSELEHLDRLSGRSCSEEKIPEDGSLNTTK
Chain of UniProt P54760 (whole entry, looked up): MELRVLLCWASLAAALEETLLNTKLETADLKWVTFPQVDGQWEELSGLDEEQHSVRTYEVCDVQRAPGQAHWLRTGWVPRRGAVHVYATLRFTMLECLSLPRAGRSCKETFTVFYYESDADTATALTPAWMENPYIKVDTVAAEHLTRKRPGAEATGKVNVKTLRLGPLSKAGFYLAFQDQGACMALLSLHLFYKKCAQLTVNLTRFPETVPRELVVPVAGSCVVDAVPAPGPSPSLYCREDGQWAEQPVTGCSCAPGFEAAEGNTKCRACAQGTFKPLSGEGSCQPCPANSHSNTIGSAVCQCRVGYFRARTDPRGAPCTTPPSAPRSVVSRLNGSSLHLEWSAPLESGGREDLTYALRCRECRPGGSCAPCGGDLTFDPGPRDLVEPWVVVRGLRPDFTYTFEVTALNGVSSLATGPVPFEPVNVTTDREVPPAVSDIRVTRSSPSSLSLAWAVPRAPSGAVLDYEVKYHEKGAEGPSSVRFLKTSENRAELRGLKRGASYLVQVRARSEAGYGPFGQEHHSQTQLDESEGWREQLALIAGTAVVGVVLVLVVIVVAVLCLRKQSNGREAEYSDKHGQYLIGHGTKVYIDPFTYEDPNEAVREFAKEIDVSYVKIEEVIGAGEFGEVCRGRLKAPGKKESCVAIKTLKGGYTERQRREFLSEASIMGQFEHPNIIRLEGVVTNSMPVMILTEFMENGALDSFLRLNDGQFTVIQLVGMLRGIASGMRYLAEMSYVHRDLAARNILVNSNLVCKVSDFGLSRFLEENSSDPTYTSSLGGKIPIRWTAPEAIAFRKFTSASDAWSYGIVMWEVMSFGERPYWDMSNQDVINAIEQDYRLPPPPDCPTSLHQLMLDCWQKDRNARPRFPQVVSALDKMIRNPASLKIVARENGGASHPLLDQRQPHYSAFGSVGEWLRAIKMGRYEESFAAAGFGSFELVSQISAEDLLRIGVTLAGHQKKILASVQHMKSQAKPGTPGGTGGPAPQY
Chain of UniProt Q2M2I8 (whole entry, looked up): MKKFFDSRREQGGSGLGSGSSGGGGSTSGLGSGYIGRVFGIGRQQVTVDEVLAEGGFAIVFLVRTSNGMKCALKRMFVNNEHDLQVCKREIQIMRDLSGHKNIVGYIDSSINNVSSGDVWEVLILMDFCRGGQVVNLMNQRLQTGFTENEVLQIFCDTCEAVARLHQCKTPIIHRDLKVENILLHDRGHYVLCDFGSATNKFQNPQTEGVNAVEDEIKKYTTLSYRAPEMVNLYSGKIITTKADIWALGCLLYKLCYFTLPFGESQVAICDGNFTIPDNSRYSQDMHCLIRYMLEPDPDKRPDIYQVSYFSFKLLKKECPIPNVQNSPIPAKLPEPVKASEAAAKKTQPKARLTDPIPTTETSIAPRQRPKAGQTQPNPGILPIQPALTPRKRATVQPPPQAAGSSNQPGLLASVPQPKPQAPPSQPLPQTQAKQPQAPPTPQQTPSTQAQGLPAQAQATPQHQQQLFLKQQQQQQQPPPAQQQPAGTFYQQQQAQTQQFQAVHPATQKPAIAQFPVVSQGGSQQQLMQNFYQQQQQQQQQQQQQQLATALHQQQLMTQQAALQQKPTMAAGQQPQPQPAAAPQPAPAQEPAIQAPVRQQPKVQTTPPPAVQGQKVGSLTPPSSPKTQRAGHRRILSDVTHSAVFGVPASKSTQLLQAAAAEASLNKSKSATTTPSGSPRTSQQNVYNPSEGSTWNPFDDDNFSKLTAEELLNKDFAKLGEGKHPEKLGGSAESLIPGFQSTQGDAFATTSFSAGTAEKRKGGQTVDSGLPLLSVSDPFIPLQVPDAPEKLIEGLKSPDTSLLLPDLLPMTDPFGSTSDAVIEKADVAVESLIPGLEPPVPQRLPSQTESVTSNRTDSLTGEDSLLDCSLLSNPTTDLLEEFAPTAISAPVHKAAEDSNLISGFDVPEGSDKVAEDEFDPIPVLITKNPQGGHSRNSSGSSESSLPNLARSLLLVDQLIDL
Chain of UniProt P07948 (whole entry, looked up): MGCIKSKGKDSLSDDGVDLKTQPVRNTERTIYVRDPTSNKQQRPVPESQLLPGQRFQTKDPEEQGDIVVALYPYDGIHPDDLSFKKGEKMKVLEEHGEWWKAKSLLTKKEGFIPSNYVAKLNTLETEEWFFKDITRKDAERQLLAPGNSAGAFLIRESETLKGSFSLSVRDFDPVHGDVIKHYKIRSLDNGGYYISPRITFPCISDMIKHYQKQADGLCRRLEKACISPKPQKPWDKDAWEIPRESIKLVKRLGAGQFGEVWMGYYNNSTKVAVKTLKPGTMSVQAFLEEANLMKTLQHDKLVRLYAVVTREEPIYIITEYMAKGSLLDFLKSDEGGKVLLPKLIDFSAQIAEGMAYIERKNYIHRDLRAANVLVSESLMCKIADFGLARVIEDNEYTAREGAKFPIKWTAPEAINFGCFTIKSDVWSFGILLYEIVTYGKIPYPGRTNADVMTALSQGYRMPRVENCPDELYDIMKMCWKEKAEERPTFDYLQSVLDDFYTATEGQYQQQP
Chain of UniProt Q6P2M8 (whole entry, looked up): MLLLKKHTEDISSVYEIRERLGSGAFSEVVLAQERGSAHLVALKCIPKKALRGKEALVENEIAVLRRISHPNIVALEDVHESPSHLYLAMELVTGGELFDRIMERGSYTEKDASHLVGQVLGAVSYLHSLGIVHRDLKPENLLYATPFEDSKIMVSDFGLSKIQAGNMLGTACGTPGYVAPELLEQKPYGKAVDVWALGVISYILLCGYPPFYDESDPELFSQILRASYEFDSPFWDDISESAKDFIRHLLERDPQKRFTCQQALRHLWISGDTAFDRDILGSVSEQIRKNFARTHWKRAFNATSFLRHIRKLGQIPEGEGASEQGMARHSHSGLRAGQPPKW
Chain of UniProt P30530 (whole entry, looked up): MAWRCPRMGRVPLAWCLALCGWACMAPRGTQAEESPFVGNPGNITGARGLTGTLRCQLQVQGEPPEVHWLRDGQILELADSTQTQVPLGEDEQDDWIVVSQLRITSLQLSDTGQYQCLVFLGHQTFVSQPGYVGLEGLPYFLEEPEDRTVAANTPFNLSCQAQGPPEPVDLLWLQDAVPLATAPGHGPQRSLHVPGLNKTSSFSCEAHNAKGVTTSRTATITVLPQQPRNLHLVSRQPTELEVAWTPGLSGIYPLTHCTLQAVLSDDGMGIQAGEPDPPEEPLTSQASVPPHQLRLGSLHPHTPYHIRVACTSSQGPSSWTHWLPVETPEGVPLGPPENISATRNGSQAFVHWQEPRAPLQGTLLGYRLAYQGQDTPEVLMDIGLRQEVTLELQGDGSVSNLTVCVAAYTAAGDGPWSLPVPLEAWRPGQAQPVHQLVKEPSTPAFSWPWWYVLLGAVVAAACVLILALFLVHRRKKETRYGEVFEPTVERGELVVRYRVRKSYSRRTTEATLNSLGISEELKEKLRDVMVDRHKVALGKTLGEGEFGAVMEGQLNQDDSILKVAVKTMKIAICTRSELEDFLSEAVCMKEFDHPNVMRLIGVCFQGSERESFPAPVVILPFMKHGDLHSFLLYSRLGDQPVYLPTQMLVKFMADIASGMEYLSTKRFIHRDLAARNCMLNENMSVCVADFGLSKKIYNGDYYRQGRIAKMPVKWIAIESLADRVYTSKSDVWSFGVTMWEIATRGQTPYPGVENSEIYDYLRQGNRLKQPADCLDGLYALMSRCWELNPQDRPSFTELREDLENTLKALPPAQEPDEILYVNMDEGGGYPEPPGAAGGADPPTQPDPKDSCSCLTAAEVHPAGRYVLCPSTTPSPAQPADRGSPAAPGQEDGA
Chain of UniProt Q16659 (whole entry, looked up): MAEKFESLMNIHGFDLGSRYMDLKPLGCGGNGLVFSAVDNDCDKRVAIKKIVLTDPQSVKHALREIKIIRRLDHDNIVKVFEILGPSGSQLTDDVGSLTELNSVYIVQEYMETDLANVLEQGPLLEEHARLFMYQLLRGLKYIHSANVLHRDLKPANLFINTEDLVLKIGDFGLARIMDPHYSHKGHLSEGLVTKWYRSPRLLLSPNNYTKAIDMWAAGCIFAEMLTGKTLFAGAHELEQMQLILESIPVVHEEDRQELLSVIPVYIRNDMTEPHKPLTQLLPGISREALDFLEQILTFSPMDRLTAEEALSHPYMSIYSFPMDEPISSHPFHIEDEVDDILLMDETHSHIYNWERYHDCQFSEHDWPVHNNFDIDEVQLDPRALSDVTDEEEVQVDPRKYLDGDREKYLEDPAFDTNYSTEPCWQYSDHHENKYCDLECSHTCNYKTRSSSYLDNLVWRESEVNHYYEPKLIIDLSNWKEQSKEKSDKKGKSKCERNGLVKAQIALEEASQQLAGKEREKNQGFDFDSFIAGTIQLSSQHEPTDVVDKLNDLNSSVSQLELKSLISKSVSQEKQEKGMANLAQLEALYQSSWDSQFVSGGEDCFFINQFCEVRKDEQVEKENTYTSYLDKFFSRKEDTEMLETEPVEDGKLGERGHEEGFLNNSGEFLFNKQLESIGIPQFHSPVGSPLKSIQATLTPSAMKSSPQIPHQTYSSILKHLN

Series 1
Target: Inhibitor of nuclear factor kappa-B kinase subunit epsilon (IKBKE, Homo sapiens, UniProt Q14164)
Effect on: enzyme activity
Action: inhibitor
Concentration: 0.5 µM
Relative to: control
Target sequence (Q14164 1-716): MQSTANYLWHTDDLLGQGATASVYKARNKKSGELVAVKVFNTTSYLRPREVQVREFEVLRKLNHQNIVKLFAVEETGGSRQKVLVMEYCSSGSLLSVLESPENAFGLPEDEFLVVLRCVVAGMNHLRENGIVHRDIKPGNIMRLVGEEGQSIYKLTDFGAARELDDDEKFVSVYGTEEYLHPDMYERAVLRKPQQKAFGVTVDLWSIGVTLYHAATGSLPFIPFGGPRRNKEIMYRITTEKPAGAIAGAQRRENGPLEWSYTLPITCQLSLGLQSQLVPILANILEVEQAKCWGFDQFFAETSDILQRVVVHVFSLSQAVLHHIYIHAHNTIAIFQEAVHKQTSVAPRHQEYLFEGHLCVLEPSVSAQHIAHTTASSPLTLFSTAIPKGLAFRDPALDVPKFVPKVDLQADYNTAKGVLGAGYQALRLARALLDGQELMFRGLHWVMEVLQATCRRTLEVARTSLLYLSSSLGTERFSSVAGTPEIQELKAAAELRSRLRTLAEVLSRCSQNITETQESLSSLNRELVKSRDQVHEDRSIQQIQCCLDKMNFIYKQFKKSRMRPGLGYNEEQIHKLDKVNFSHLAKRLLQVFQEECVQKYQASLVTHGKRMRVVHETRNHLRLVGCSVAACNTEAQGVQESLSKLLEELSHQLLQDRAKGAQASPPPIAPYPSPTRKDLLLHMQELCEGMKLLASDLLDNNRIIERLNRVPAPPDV
Compound	remaining activity [%]
N#CC(C#N)=C(N)/C(C#N)=C/c1ccc(O)cc1	91
Nc1ncnc2n[nH]c(Nc3ccc(F)cc3)c12	100
CO[C@H]1C[C@@H]2CC[C@@H](C)[C@@](O)(O2)C(=O)C(=O)N2CCCC[C@H]2C(=O)O[C@H]([C@H](C)C[C@@H]2CC[C@@H](O)[C@H](OC)C2)CC(=O)[C@H](C)/C=C(\C)[C@@H](O)[C@@H](OC)C(=O)[C@H](C)C[C@H](C)/C=C/C=C/C=C/1C	99.4
Nc1ccc2ncnc(NCCc3ccc(Oc4ccccc4)cc3)c2c1	95.6
OCC(O)CCON=C1C(c2c(O)[nH]c3ccccc23)=Nc2ccccc21 (stereo not drawn)	45.7

Series 2
Target: CREBRF, bZIP domain (human)
Method: DHFR protein complementation
Sample: yeast
Notes: single substitutions, most at no-binding floor
Relative to: wild-type JUN-FOS pair
Reading: higher = stronger binding
Starting sequence: JUN, bZIP domain (human); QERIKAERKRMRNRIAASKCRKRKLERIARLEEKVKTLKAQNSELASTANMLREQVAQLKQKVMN; partner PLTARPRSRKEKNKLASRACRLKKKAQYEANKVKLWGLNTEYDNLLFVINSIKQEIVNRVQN
Substitution	binding fitness [natural log]
L45P	-1.48
A49N	-1.54
E32C	-1.42
L52Y	-1.53
A57V	-1.67
K39D	-1.59
E32R	-1.35
K39C	-1.5

Series 3
SMILES: COc1ccc2c(c1)O[C@H](c1ccc(OC)c(OC)c1)C[C@@H]2NC(=O)C1(c2ccc3c(c2)OC(F)(F)O3)CC1
Effect on: cell-free assay
Method: competition with immobilised ligand
Concentration: 1 µM
target	remaining binding
LYN (Homo sapiens, UniProt P07948)	88%
LRRK2 (Homo sapiens, UniProt Q5S007)	100%
PNCK (Homo sapiens, UniProt Q6P2M8)	100%
TGFBR2 (Homo sapiens, UniProt P37173)	100%
AXL (Homo sapiens, UniProt P30530)	100%
AAK1 (Homo sapiens, UniProt Q2M2I8)	100%
Tyrosine-protein kinase ABL1, phosphorylated (ABL1, Homo sapiens, UniProt P00519)	93%
EPHB4 (Homo sapiens, UniProt P54760)	88%
MAPK6 (Homo sapiens, UniProt Q16659)	100%

Series 4
Target: Fragile X messenger ribonucleoprotein 1, C-terminal low-complexity region (Fmr1, Mus musculus, UniProt P35922)
Method: RNA Bind-n-Seq
Molecule type: RNA
Sample: in vitro
Concentration: 200 nM
Notes: whole 134-nt RNA, ends assumed
Added: 150 mM KCl
Relative to: input library
Reading: higher = stronger binding
Constant ends, left off below: GGGAGUUCUACAGUCCGACGAUC … UGGAAUUCUCGGGUGUCAAGG
Sequence	log2 enrichment
AAAAUAAGCCUAAGAAAGAAUUAAUUAAAGUUCUGAUUCAGAGGGGAUAUGAUUCGGAUCCUGUGAAGGCCUGGAAAGAAGCCCAGCAAA	-0.28
CAAGUCCUGUGCUACACAUCGUAUGUACCGAAUCGGGGCCCGGCCCGGGGCCCGGGAAAGUAUUAUGUUACGCCGUUCGGAUCUGCACUU	-0.824
GUCCUGUGCUACACAUCGUAUGUACCGAAUCGGGGUUUUUGGGUUUUUGGGUUUUUGGAAAGUAUUAUGUUACGCCGUUCGGAUCUGCAC	-0.0697
UCCUGUGCUACACAUCGUAUGUACCGAAUCGGGUUUUUUGGUUUUUUGGUUUUUUGGGGAAAGUAUUAUGUUACGCCGUUCGGAUCUGCA	-0.387
GUCCUGUGCUACACAUCGUAUGUACCGAAUCGGGUUUUUUUGGGAAAGGGAAAAAGGGAAAGUAUUAUGUUACGCCGUUCGGAUCUGCAC	-0.356
AAGUCCUGUGCUACACAUCGUAUGUACCGAAUCGGGGAAAGGGAAAGGGAAAGGGGAAAGUAUUAUGUUACGCCGUUCGGAUCUGCACUU	0.423
GUCCUGUGCUACACAUCGUAUGUACCGAAUCGGGAAAAAGGGGAAAAAGGAAAAAGGGGAAAGUAUUAUGUUACGCCGUUCGGAUCUGCA	-0.228
UGGCCCUGGUGGCAUGCGGGGAGGAAGAGGUGGCCUCAUGGAUCGUGGUGGUCCCGGUGGAGUGUUCAGAGGUGGCCGUGGUGGAGACAG	0.129

A few entries again (series 2):
Substitution	binding fitness [natural log]
A57V	-1.67
E32R	-1.35
E32C	-1.42
